Results collected from several papers.
Protocols differ between the studies behind these lines.
Target: Serine/threonine-protein kinase 35 (STK35, Homo sapiens, UniProt Q8TDR2)

Cc1ccc(-c2c(/C=C(\C#N)C(=O)NC(C)C)n(CCCO)c3ncnc(N)c23)cc1
remaining binding (cell-free assay, competition with immobilised ligand; 1 µM): 98%

C=CC(=O)N1CCCC(n2c(=O)c3ncccc3n(Cc3ccc(Oc4ccccc4)cc3)c2=O)C1 (stereo not drawn)
remaining binding (cell-free assay, competition with immobilised ligand; 1 µM): 100%

COc1cc(Nc2nc(C)cc(-c3cnn4nc(OC)ccc34)n2)cc(C(F)(F)F)c1
remaining binding (binding, competition with immobilised ligand; 1 µM): 100%

Cc1cnc2nc1Nc1cccc(c1)COC/C=C/COCc1cc(ccc1OCCN1CCOCC1)N2
remaining binding (binding, competition with immobilised ligand; 0.1 µM): 100%

O=C(Cc1ccc(OCc2ccccc2)cc1)NC1(C(=O)O)CCN(C(=O)c2ccc(-c3cccc(Cl)c3)cc2)CC1
activity vs control (enzyme activity, inhibitor; 10 µM): 117%

CN1CC[C@@H](COc2cnc(C#N)cc2-c2ccn3nc(NC(=O)C4CC4)cc3c2)C1
inhibition (enzyme activity, inhibitor; 1 µM): 4%

CCN1CCN(Cc2ccc(C(=O)Nc3ccc(C)c(NCc4cnc5[nH]ccc5c4OC)c3)cc2C(F)(F)F)CC1
remaining binding (binding, competition with immobilised ligand; 1 µM): 73%

CNC(=O)C[C@H](Cc1ccc(C#N)cc1)NC(=O)c1cc(-c2ccc(CN[C@H](C)c3ccc(C)cc3)o2)ccc1Cl
activity vs control (enzyme activity, inhibitor; 1 µM): 92%

C=CC(=O)N1CCc2ccc(-n3c(=O)ccc4cnc5ccc(-c6cnn(C)c6)cc5c43)cc21
remaining binding (KINOMEscan; 1 µM; reference: DMSO control): 85%

CNC(=O)C1CCN(c2cc(C)c(F)cc2NC(=O)c2ccc(-c3cc(O)ccc3C)c(C)c2)CC1
remaining binding (binding, competition with immobilised ligand; 1 µM): 95%

COc1c(Cl)cccc1Nc1c(-c2ccncc2C#C[C@@]2(C)CCCN2C(=O)/C=C/CN(C)C)[nH]c2c1C(=O)NCC2
remaining binding (binding, competition with immobilised ligand; 3 µM): 100%

Nc1ncc2c(n1)-c1c([nH]c3ccc(C4=CCOCC4)cc13)CCC2
remaining binding (binding, competition with immobilised ligand; 1 µM): 100%

CC(C)=CC1OC(C)(C)C2C=C3C(=O)C(Cl)=CC(O)C3C3C(O)C4OC4C(=O)C132 (stereo not drawn)
remaining binding (cell-free assay, competition with immobilised ligand; 10 µM): 100%

COc1cc(Nc2nccc(-c3cnn4nc(OC)ccc34)n2)cc(C(F)(F)F)c1
remaining binding (binding, competition with immobilised ligand; 1 µM): 100%

CNC1C[S+]2CC[S+]3CC[S+](C1)[Ru-4]321([N]=C=S)[n]2c3ccc(OC)cc3c3c4c(c5cc(F)c[n+]1c5c32)C(=O)NC4=O (stereo not drawn)
remaining binding (KinomeScan; 0.1 µM; reference: untreated): 100%

Repeated from above:
CN1CC[C@@H](COc2cnc(C#N)cc2-c2ccn3nc(NC(=O)C4CC4)cc3c2)C1
inhibition (enzyme activity, inhibitor; 1 µM): 4%

Nc1ncc2c(n1)-c1c([nH]c3ccc(C4=CCOCC4)cc13)CCC2
remaining binding (binding, competition with immobilised ligand; 1 µM): 100%
